Assay results pooled from the literature.
Each line is one published result; not all experiments were run side by side. ± gives the spread as reported.

CCCCCCCCCCCCCC[C@@H](O)[C@@H](O)[C@H](CO[C@H]1O[C@H](CO)[C@H](O)[C@H](O)[C@H]1O)NC(=O)CCCCCCc1ccccc1 has an IFN-γ/IL-4 ratio of 1.73 ± 0.17 (human Vα24+ NKT cells; concentration not given, HeLa-CD1d co-culture; baseline: α-GalCer).
The growth of CC(=O)OC[C@H]1O[C@@H](Sc2sc(C(=O)c3ccc(Br)cc3)c(N)c2-c2nc3ccccc3s2)[C@H](OC(C)=O)[C@@H](OC(C)=O)[C@@H]1OC(C)=O is reported as 28.1% (NCI-H226; SRB; 10 µM, 48 h; baseline: untreated).
With Cc1nc2ccccc2c(=O)n1N the viability was 28% (LoVo; cell growth or viability, LDH; 200 µg/mL, 24 h).
The TGI of CC/C=C\C/C=C\C/C=C\C/C=C\C/C=C\C/C=C\CCC(=O)Nc1ccn(C2OC(CO)C(O)C2(F)F)c(=O)n1 (stereo not drawn) is reported as 25.1 µM (SNB-75; NCI60 screen).
For O=c1c(/C=N/NC(=S)N/N=C/c2cc(Cl)ccc2O)coc2ccccc12, “decrease in intracellular H2O2” read roughly 45% (HeLa; DCFDA flow cytometry; 50 µM, 24 h).
COc1ccc(C2=Nn3c(NN=C4C(=O)N(C)c5ccc(Br)cc54)nnc3SC2)cc1 has an inhibition of 17% (SNB-75; cell growth or viability, SRB; 10 µM).
O=C(c1ccncc1)N1N=C2/C(=C/c3ccc(Cl)cc3)CCCC2C1c1ccc(Cl)cc1 (stereo not drawn) gave a membrane protection of 78.2% (human erythrocytes; HRBC membrane stabilization; concentration not given).
With COc1cc(CNC(=O)C[C@H](C)CCC=C(C)C)ccc1OCc1cn(-c2ccccc2Cl)nn1 the growth percent was 39.6% (UACC-62 melanoma cells; SRB; 10 µM, 48 h).
For CC(C)=CCc1cc2c(cc1O)OCc1c-2oc2c(CC=C(C)C)c(O)ccc12, glucose consumption read “inactive” (3T3-L1 adipocytes; activator; up to 100 µM).
Cc1nc(C)c(C=[N+]([O-])C(C)(C)C)nc1C gave a reporter gene of 142 ± 14.7% (N2a; luciferase, refers to: PGC-1α promoter; 300 µM; baseline: basal).
CC1=[N+]2N=C(c3ccccc3)[O][Pd-2]2([Cl])[O+]=C2Oc3ccccc3C=C21 (stereo not drawn) gave a selectivity index of 4.62 (HeLa; cytotoxicity, MTT; 48 h; baseline: WI-38 over HeLa IC50).
For NC(CSSCC(N)C(=O)N1CCn2cc(-c3ccccc3)nc2C1CC1CCCCC1)C(=O)N1CCn2cc(-c3ccccc3)nc2C1CC1CCCCC1 (stereo not drawn), the apoptotic cells was 22.4% (MP41; annexin V/PI flow cytometry; 10 µM, 48 h).
COc1cc(CNC(=O)C[C@H](C)CCC=C(C)C)ccc1OCc1cn(-c2cccc(C(F)(F)F)c2)nn1 gave a growth percent of 14.6% (NCI-H460; SRB; 10 µM, 48 h).
For NS(=O)(=O)NCC(F)(F)c1ccccc1F, the EC50 was 0.003 µM (rat hippocampal neurons; neuroprotection, CFDA viability; 4 h, together with: hydrogen peroxide 10 µM).
With CC(Cc1ccc(Cl)cc1)=C(c1ccc(Cl)cc1)c1ccc(OCCN(C)C)cc1 the GI50 was 4.52 µM (MDA-MB-435; cell growth or viability, SRB).
Under “caspase 3/7 activity”, CCN(CC)C1CCN(Cc2cc(C#CCNC(=O)OC(C)(C)C)cc(I)c2O)CC1 is recorded as “no effect” (NUGC-4 p53 wild type; 6.25 to 100 µM, 6 h).
For O=Cc1c(O)ccc2ccccc12, “log2 fold change” read 3.2 (HUVEC; RNA sequencing, refers to: PTPRH; 75 µM, 24 h; baseline: DMSO).
COc1ccc([C@@H]2CC(=O)c3c(O)cc(O[C@@H]4O[C@H](CO[C@@H]5O[C@@H](C)[C@H](O)[C@@H](O)[C@H]5O)[C@@H](O[C@H]5O[C@H](CO)[C@@H](O)[C@H](O)[C@H]5O)[C@H](O)[C@H]4O)cc3O2)cc1O has a cell count of 17100 ± 394 (A549; trypan blue exclusion; 50 µg/mL, 48 h).
S=C(Nc1ccccc1)c1cccc(C(=S)Nc2ccccc2)n1 has an inhibition of less than 50% (HFF; cell growth or viability; 12.5 µM, 96 h).
The growth percent of COc1cc(CNC(=O)C[C@H](C)CCC=C(C)C)ccc1OCc1cn(-c2ccccc2)nn1 is reported as 79.4% (K562 leukaemia cells; SRB; 10 µM, 48 h).
Under mRNA level, COc1cc2c(OC3OCC(OC)C(OC)C3OC(=O)c3ccc(Br)cc3)c3c(c(-c4ccc5c(c4)OCO5)c2cc1OC)C(=O)OC3 (stereo not drawn) is recorded as “no effect” (FaDu; RT-qPCR, refers to: Twist; concentration not given, 36 h).
With O=[N+]([O-])/C=C/c1ccc(Br)o1 the selectivity index was 4.5 (KB; mean of three Leishmania species; baseline: KB CC50 over Leishmania IC50).
For Cc1ccc(C(C)C)cc1.Oc1ccccc1C=NNC1=Nc2ccccc2-c2[nH]c3ccc(Br)cc3c2C1.[Cl-].[Cl][Ru+], the apoptotic cells was 72% (SW480; annexin V/PI flow cytometry; 5 µM, 48 h, early plus late apoptosis).
COC(=O)[C@@H]1[C@@H](OC)[C@H](OC(=O)c2cc(OC)c(OC)c(OC)c2)C[C@@H]2CN3CC[C@]4(O[C@@H]3C(=O)[C@@H]21)C(=O)Nc1cc(OC)c(-c2ccc(C(F)(F)F)cc2)cc14: “late apoptotic cells” 45.9 ± 2.78% (RS4;11; annexin V/PI flow cytometry; 1 µM, 72 h).
COc1cc(CNC(=O)C[C@H](C)CCC=C(C)C)ccc1OCc1cn(-c2ccccc2F)nn1 has a growth percent of 81.6% (K562 leukaemia cells; SRB; 10 µM, 48 h).
O=C(NN1C(=O)c2ccccc2NC1c1ccc([N+](=O)[O-])o1)c1ccc([N+](=O)[O-])cc1 (stereo not drawn) — result for cell proliferation: “no effect” (mouse LDR cells; MTS; dose not given, 4 days).
For CN1CCN(C(=O)N(CCCCCCC(=O)NO)c2ccc(-c3ccc4cnn(C)c4c3)cc2)CC1, protein level read “increased” (RPMI-8226; immunoblot, refers to: DACT3; 300 and 1000 nM, 24 h).
For CCC(=O)N(C)c1ccc(Cl)c(Cl)c1, IL-6 secretion read “decreased” (DBA/1 mouse splenocyte T cells; 50 to 200 µM, together with: anti-CD3/CD28).
For Cc1cc([C@H](C(=O)N2C[C@H](O)C[C@H]2C(=O)N[C@@H](CC(=O)N2CCC(N3CCC(C#Cc4ccc(C(=O)N[C@H]5C(C)(C)[C@H](Oc6ccc(C#N)c(Cl)c6)C5(C)C)cc4)CC3)CC2)c2ccc(-c3scnc3C)cc2)C(C)C)on1, phospho-AKT level read “decreased” (MDA-MB-453; concentration not given, 24 h, together with: 1 nM R1881).
For CCCc1c(O)c(O)cc(C(=O)O)c1COC1OC(CO)C(O)C(O)C1O (stereo not drawn), reporter activity read “no effect” (SW480; β-catenin-dependent transcription, TOPFLASH luciferase reporter; concentration not given).
COc1ccc(NC(=O)COc2ccc(/C=C/C(C)=N/O)cc2OC)cc1: “TNF-α expressing cells” 8.43% (SH-SY5Y; flow cytometry; 40 µM, together with: amyloid beta 10 µM).
For CC(C)=CCc1cc([C@@H]2CC(=O)c3ccc(O)c(CC=C(C)C)c3O2)c(O)c(CC=C(C)C)c1O, glucose consumption read “inactive” (3T3-L1 adipocytes; activator; up to 100 µM).
With COc1cc(CNC(=O)C[C@H](C)CCC=C(C)C)ccc1O the growth percent was 81.2% (UACC-62 melanoma cells; SRB; 10 µM, 48 h).

Repeated from above:
With O=[N+]([O-])/C=C/c1ccc(Br)o1 the selectivity index was 4.5 (KB; mean of three Leishmania species; baseline: KB CC50 over Leishmania IC50).
For Cc1ccc(C(C)C)cc1.Oc1ccccc1C=NNC1=Nc2ccccc2-c2[nH]c3ccc(Br)cc3c2C1.[Cl-].[Cl][Ru+], the apoptotic cells was 72% (SW480; annexin V/PI flow cytometry; 5 µM, 48 h, early plus late apoptosis).
COC(=O)[C@@H]1[C@@H](OC)[C@H](OC(=O)c2cc(OC)c(OC)c(OC)c2)C[C@@H]2CN3CC[C@]4(O[C@@H]3C(=O)[C@@H]21)C(=O)Nc1cc(OC)c(-c2ccc(C(F)(F)F)cc2)cc14: “late apoptotic cells” 45.9 ± 2.78% (RS4;11; annexin V/PI flow cytometry; 1 µM, 72 h).
COc1cc(CNC(=O)C[C@H](C)CCC=C(C)C)ccc1OCc1cn(-c2ccccc2F)nn1 has a growth percent of 81.6% (K562 leukaemia cells; SRB; 10 µM, 48 h).
O=C(NN1C(=O)c2ccccc2NC1c1ccc([N+](=O)[O-])o1)c1ccc([N+](=O)[O-])cc1 (stereo not drawn) — result for cell proliferation: “no effect” (mouse LDR cells; MTS; dose not given, 4 days).
